{"data": "Results from different studies", "organism": "Staphylococcus aureus", "note": "Each line is one published result; not all experiments were run side by side."}
{"SMILES": "CC[C@H](C)[C@H](NC(=O)[C@H](CCCCN)NC(=O)[C@H](CC(=O)O)NC(=O)[C@H](CC(C)C)NC(=O)[C@@H](NC(=O)[C@H](CC(N)=O)NC(=O)[C@H](CC(C)C)NC(=O)[C@@H](NC(=O)[C@H](Cc1ccccc1)NC(=O)[C@H](CCCCN)NC(=O)[C@H](CCCCN)NC(=O)CNC(=O)[C@H](C)NC(=O)[C@H](CC(N)=O)NC(=O)[C@H](CCCCN)NC(=O)[C@H](Cc1ccccc1)NC(=O)[C@H](CC(N)=O)NC(=O)[C@H](CCC(=O)O)NC(=O)[C@H](Cc1c[nH]c2ccccc12)NC(=O)[C@H](CC(C)C)NC(=O)[C@@H](N)CO)[C@@H](C)CC)[C@@H](C)CC)C(=O)N[C@@H](CCCNC(=N)N)C(N)=O", "system": "ATCC 6538", "conditions": "overnight, 37 °C, 10 % fetal bovine serum", "MIC": "8 µM"}
{"SMILES": "C/C(=C\\C(=O)OCCCCCCCCC(=O)O)C[C@@H]1OC[C@H](C[C@@H]2O[C@H]2[C@@H](C)[C@H](C)O)[C@@H](O)[C@H]1O", "system": "mecA−, antibiotic-susceptible", "MIC": "1 µg/mL"}
{"SMILES": "CC[C@H](C)[C@H](NC(=O)[C@H](CCCNC(=N)N)NC(=O)[C@H](CCCNC(=N)N)NC(=O)[C@@H](N)CCCNC(=N)N)C(=O)N[C@@H](CO)C(=O)N[C@@H](Cc1ccccc1)C(=O)N[C@@H](CC(C)C)C(=O)NCC(=O)N[C@@H](CO)C(=O)N[C@@H](CCCCN)C(=O)N[C@H](C(=O)N[C@H](C(=O)N[C@H](C(=O)N[C@@H](CCCNC(=N)N)C(=O)N[C@@H](CCCNC(=N)N)C(=O)N[C@@H](CCCCN)C(=O)N[C@@H](CCCNC(=N)N)C(N)=O)C(C)C)C(C)C)C(C)C", "test": "broth microdilution", "conditions": "24 h, 37 °C", "MIC": "128 µM"}
{"SMILES": "C[C@@H](O)[C@H](NC(=O)[C@H](Cc1c[nH]c2ccccc12)NC(=O)[C@H](Cc1c[nH]c2ccccc12)NC(=O)[C@H](Cc1c[nH]c2ccccc12)NC(=O)[C@@H](NC(=O)[C@H](Cc1c[nH]c2ccccc12)NC(=O)[C@H](CCCNC(=N)N)NC(=O)[C@@H](N)CCCNC(=N)N)[C@@H](C)O)C(=O)N[C@@H](Cc1c[nH]c2ccccc12)C(=O)N[C@@H](CCCNC(=N)N)C(=O)N[C@@H](CCCNC(=N)N)C(N)=O", "test": "broth microdilution", "system": "29213, Mueller-Hinton broth", "conditions": "24 h, 37 °C, lowest concentration, 95% inhibition, added: BSA", "MIC": "2 µM"}
{"SMILES": "CC[C@H](C)[C@H](NC(=O)[C@H](Cc1c[nH]c2ccccc12)NC(=O)[C@@H](NC(=O)[C@H](Cc1c[nH]c2ccccc12)NC(=O)[C@@H]1CCCN1C(=O)[C@@H](NC(=O)[C@H](C)N)[C@@H](C)CC)[C@@H](C)CC)C(=O)N[C@@H](Cc1c[nH]c2ccccc12)C(=O)N[C@@H](CCCNC(=N)N)C(=O)N[C@@H](CC(C)C)C(=O)N[C@@H](CC(C)C)C(=O)N[C@@H](CCCNC(=N)N)C(=O)N[C@@H](CCCCN)C(=O)NCC(N)=O", "test": "broth microdilution", "system": "ATCC 19609", "conditions": "18 h, 37 °C", "MIC": "3.75 µM"}
{"SMILES": "CC[C@H](C)[C@H](NC(=O)[C@H](CC(C)C)NC(=O)[C@H](CCCNC(=N)N)NC(=O)[C@@H](N)CCCNC(=N)N)C(=O)N[C@@H](CCCNC(=N)N)C(=O)N[C@@H](CCCCN)C(=O)N[C@@H](CC(C)C)C(=O)N[C@@H](CCCCN)C(=O)NCC(=O)N[C@@H](CC(C)C)C(=O)N[C@@H](CCCCN)C(=O)N[C@@H](CCCCN)C(=O)N[C@@H](Cc1ccc(O)cc1)C(=O)N[C@@H](CC(C)C)C(=O)N[C@@H](Cc1ccc(O)cc1)C(=O)N[C@@H](Cc1ccccc1)C(=O)N[C@@H](CCCCN)C(=O)N[C@@H](CC(C)C)C(=O)N[C@@H](CCC(N)=O)C(=O)N[C@@H](CC(C)C)C(=O)N[C@@H](CC(C)C)C(=O)N[C@@H](CCCCN)C(=O)N[C@@H](CCCCN)C(N)=O", "test": "broth microdilution", "system": "KCTC 1621, Mueller-Hinton broth", "conditions": "added: FeCl3 4 µM", "MIC": "16 µM"}
{"SMILES": "CC(C)C[C@H](NC(=O)CNC(=O)CNC(=O)CNC(=O)CNC(=O)CNC(=O)[C@H](Cc1ccc(O)cc1)NC(=O)[C@H](CC(C)C)NC(=O)[C@@H](NC(=O)CNC(=O)[C@H](Cc1ccc(O)cc1)NC(=O)[C@H](CCCCN)NC(=O)[C@H](CC(N)=O)NC(=O)[C@@H](NC(=O)[C@H](CCCCN)NC(=O)[C@H](Cc1c[nH]c2ccccc12)NC(=O)CN)[C@@H](C)O)[C@@H](C)O)C(=O)N[C@@H](CCCCN)C(=O)N[C@@H](CCCCN)C(=O)N[C@@H](CC(C)C)C(=O)N[C@@H](CC(C)C)C(=O)N[C@@H](CC(C)C)C(=O)N[C@@H](CC(C)C)C(=O)N[C@@H](CC(C)C)C(=O)N[C@@H](CCCCN)C(=O)N[C@@H](CCCCN)C(=O)N[C@@H](CC(C)C)C(=O)NCC(=O)O", "system": "ATCC 25923, Mueller-Hinton broth", "conditions": "18 to 24 h, 37 °C", "MIC": "128 µg/mL"}
{"SMILES": "CCCCCCCCCCCCCCCC(=O)NS(=O)(=O)OCCCC", "system": "ATCC 33591 methicillin-resistant", "MIC": "> 200 µg/mL"}
{"SMILES": "COc1ccnc(NC(=S)N2CCN(c3ncc(C(F)(F)F)cc3Cl)CC2)c1", "system": "MRSA USA300-18807, clinical", "MIC": "1.9 µM"}
{"SMILES": "CC[C@H](C)[C@H](NC(=O)[C@H](CC(C)C)NC(=O)[C@H](CCCNC(=N)N)NC(=O)[C@@H](N)CCCNC(=N)N)C(=O)N[C@@H](CC(C)C)C(=O)N[C@H](C(=O)N[C@@H](CCCCN)C(=O)N[C@H](C(=O)NCC(=O)N1CCC[C@H]1C(=O)N[C@H](C(=O)N[C@H](C(=O)N[C@@H](Cc1ccc(O)cc1)C(=O)N[C@@H](CCCCN)C(=O)N[C@@H](Cc1ccc(O)cc1)C(=O)N[C@@H](Cc1ccccc1)C(=O)N[C@@H](CCCCN)C(=O)N[C@@H](CCCCN)C(=O)N[C@@H](CCC(N)=O)C(=O)N[C@@H](CC(C)C)C(=O)N[C@@H](CCCCN)C(=O)N[C@@H](CCCCN)C(=O)N[C@@H](CC(C)C)C(N)=O)[C@@H](C)CC)[C@@H](C)CC)[C@@H](C)O)[C@@H](C)O", "system": "CCARM 3090, methicillin-resistant, Mueller-Hinton broth", "conditions": "24 h", "MIC": "64 µM"}
{"SMILES": "CC[C@H](C)[C@H](N)C(=O)N[C@@H](CC(C)C)C(=O)NCC(=O)N[C@H](CCCNC(=N)N)C(=O)N[C@H](C(=O)N[C@H](C(=O)N[C@@H](CCCCN)C(=O)NCC(=O)N[C@H](C(=O)N[C@@H](CCCCN)C(=O)N[C@@H](CC(=O)O)C(=O)N[C@H](C(=O)N[C@@H](CC(C)C)C(N)=O)[C@@H](C)CC)[C@@H](C)CC)C(C)C)[C@@H](C)CC", "test": "broth microdilution", "system": "MRSA ATCC 33591, Mueller-Hinton broth", "conditions": "16 h, 37 °C", "MIC": "50 µM"}
{"SMILES": "CC[C@H](C)[C@H](NC(=O)[C@H](CC(C)C)NC(=O)[C@H](CCCNC(=N)N)NC(=O)[C@@H](N)CCCNC(=N)N)C(=O)N[C@@H](CCCNC(=N)N)C(=O)N[C@@H](CCCCN)C(=O)N[C@@H](CC(C)C)C(=O)N[C@@H](CCCCN)C(=O)NCC(=O)N1CCC[C@H]1C(=O)N[C@H](C(=O)N[C@H](C(=O)N[C@@H](Cc1ccc(O)cc1)C(=O)N[C@@H](CC(C)C)C(=O)N[C@@H](Cc1ccc(O)cc1)C(=O)N[C@@H](Cc1ccccc1)C(=O)N[C@@H](CCCCN)C(=O)N[C@@H](CC(C)C)C(=O)N[C@@H](CCC(N)=O)C(=O)N[C@@H](CC(C)C)C(=O)N[C@@H](CC(C)C)C(=O)N[C@@H](CCCCN)C(=O)N[C@@H](CCCCN)C(N)=O)[C@@H](C)CC)[C@@H](C)CC", "test": "broth microdilution", "system": "KCTC 1621, Mueller-Hinton broth", "conditions": "24 h, 37 °C", "MIC": "64 µM"}
{"SMILES": "Cc1ccc2[nH]c3c(c2c1)CCCC3NCCc1ccc(Br)cc1 (stereo not shown)", "test": "broth microdilution", "MIC": "4 µg/mL"}
{"note": "Repeated from above:"}
{"SMILES": "CC[C@H](C)[C@H](NC(=O)[C@H](CCCNC(=N)N)NC(=O)[C@H](CCCNC(=N)N)NC(=O)[C@@H](N)CCCNC(=N)N)C(=O)N[C@@H](CO)C(=O)N[C@@H](Cc1ccccc1)C(=O)N[C@@H](CC(C)C)C(=O)NCC(=O)N[C@@H](CO)C(=O)N[C@@H](CCCCN)C(=O)N[C@H](C(=O)N[C@H](C(=O)N[C@H](C(=O)N[C@@H](CCCNC(=N)N)C(=O)N[C@@H](CCCNC(=N)N)C(=O)N[C@@H](CCCCN)C(=O)N[C@@H](CCCNC(=N)N)C(N)=O)C(C)C)C(C)C)C(C)C", "test": "broth microdilution", "conditions": "24 h, 37 °C", "MIC": "128 µM"}
